Results of several laboratories.
Every numbered part comes from another study and shows a few of its results, in no order. Substitutions count along the parent as printed.

Series 1
Target: ABI1, truncated, D143A, DHFR fusion (Arabidopsis thaliana)
Technique: DHFR PCA, deep sequencing
Matrix: yeast
Notes: methotrexate growth selection, single substitutions
Added: (+)-ABA 1.4 µM
Relative to: wild-type fitted maximum
Reading: higher = stronger binding
Starting sequence: PYL1, truncated, DHFR fusion (Arabidopsis thaliana); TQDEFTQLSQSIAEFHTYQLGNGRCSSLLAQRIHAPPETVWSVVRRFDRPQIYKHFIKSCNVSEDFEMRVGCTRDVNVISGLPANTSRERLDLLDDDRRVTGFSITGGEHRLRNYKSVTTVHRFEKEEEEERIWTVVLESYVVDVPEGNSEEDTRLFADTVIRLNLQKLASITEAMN; partner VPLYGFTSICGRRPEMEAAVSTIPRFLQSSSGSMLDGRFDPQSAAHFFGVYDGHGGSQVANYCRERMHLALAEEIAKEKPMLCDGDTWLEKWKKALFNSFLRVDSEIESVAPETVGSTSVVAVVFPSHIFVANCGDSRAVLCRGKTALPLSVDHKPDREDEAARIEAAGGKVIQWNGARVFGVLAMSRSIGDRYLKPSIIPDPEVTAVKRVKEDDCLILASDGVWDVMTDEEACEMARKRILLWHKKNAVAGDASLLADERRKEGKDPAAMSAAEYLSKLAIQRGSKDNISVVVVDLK
Variant | relative binding score [%]
D75Y | 53.5
C72V | 60.7
T106M | 58.8
F124R | 7.39
G23E | 21
G148Y | -12
H55L | 66.3
A170H | -4.87
I52K | 23.9
Q2E | 75.4
E4G | 35.9
S26H | 35.6
Q51P | -11.9

Series 2
Target: Histone acetyltransferase KAT6A, winged helix 2, GST fusion (KAT6A, Homo sapiens, UniProt Q92794, residues 85-181)
Technique: protein binding microarray
Molecule type: double-stranded DNA, one strand shown
Matrix: in vitro
Tested at: not given
Notes: 8-mer, flanks averaged, mean of 2 arrays, mostly near background
Relative to: not given
Reading: higher = stronger binding
Residues (chain): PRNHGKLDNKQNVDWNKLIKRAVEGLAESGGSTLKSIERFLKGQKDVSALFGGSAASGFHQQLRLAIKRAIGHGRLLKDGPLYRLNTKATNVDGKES
Strand | E-score
ATTGCGAA | -0.0334
AAGGAAAG | -0.0758
AAGATAGA | -0.1
ACCAACCC | -0.00101
AAATACAG | -0.0423
GTGTAAGA | -0.0653
AACTCAAG | -0.0338
GACGTCCA | -0.169
CGAGCCGC | 0.13
AGTTTGAG | 0.0342
ACACGGCA | 0.0439
CGTCGAAA | 0.0333
ACCTTCCT | -0.218
CATAGATC | -0.0941
TAAACGGA | 0.0249
CCTGCTGC | 0.0819
AAATCTTC | -0.139
CGAGGCGC | 0.233

Series 3
Target: Interferon regulatory factor 3, full length, phosphomimetic (IRF3, Homo sapiens, UniProt Q14653, residues 1-427, S386D/S396D/S398D/S402D/T404D/S405D)
Technique: protein-binding microarray
Molecule type: double-stranded DNA, one strand shown
Matrix: in vitro
Tested at: 2540 nM top
Notes: 60-bp whole probe
Added: salmon DNA 0.4 mg/ml
Relative to: random background probes
Reading: higher = stronger binding
Constant ends, left off below: GCCTAGCAC … GTCTTGATTCGCTTGACGCTGCTG
Target sequence (chain): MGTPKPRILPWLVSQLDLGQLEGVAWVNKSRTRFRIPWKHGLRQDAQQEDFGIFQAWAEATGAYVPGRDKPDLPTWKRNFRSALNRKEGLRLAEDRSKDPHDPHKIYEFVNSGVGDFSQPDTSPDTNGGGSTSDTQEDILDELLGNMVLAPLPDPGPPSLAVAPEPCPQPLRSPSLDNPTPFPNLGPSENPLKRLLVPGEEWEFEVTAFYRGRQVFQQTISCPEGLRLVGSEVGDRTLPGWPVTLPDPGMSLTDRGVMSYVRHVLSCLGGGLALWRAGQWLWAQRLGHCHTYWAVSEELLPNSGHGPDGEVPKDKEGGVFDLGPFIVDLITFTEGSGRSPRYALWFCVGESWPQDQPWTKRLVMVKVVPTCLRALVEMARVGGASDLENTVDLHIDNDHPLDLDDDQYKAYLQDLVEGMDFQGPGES
Strand | fitted relative affinity [z-score]
TGCATCGTAAGCAAAAATGAGTGCTAG | -0.113
GACGGTAGCGGACTGGGGACGTGCTAG | -0.661
GACGGTATCGGGATCGGGACGTGCTAG | 1.99
GACGGTTTCCTCCTGCTGACGTGCTAG | 3.97
GATTATAAAATGTGTGTTTGGTGCTAG | 0.00491
TTACGACTGGGTCTCGGTTAGTGCTAG | -0.44
GACGGCTTCCTTCTCCTGACGTGCTAG | 1.39
TCCATTTTCTGAATGCCTTGGTGCTAG | 2.7
TTAGATTTCGGGTATCGATTTGTGCTA | 2.06
GACGGACTGGGGTATCGGGAGGTGCTA | -0.775
TTAGGTCTCGGACAGGGTTAGTGCTAG | -0.575
TCAGCCCTCACCATCATACTGTGCTAG | -0.296
CCCAATTCTCTTTTCACTTTGTGCTAG | 2.3
TTAGATATCAGACTGGATAAGTGCTAG | 0.172
TCAACTAGGGAATTTAGAACTGTGCTA | -0.129
GTGTTTTCATTTTATGACAGCGTGCTA | 4.53
TACGATTTCAGTCTCGAGACGTGCTAG | 2.09
TCAAGTCTGAGATCCAGACTGTGCTAG | 0.00105

Series 4
Target: Fragile X messenger ribonucleoprotein 1, C-terminal low-complexity region (Fmr1, Mus musculus, UniProt P35922)
Technique: RNA Bind-n-Seq
Molecule type: RNA
Matrix: in vitro
Tested at: 200 nM
Notes: whole 134-nt RNA, ends assumed
Added: 150 mM KCl
Relative to: input library
Reading: higher = stronger binding
Constant ends, left off below: GGGAGUUCUACAGUCCGACGAUC … UGGAAUUCUCGGGUGUCAAGG
Strand | log2 enrichment
UCAAGUCCUGUGCUACACAUCGUAUGUACCGAAUCGGAGGAAAAAGGUUUUUGGAAAGUAUUAUGUUACGCCGUUCGGAUCUGCACUUCC | -0.675
AAGUCCUGUGCUACACAUCGUAUGUACCGAAUCGGGUUUUUGGGAGGGAAAAAGGGAAAGUAUUAUGUUACGCCGUUCGGAUCUGCACUU | 0.504
UGGCCCUGGUGGCAUGCGGGGAGGAAGAGGUGGCCUCAUGGAUCGUGGUGGUCCCGGUGGAACGUUCAGAGGUGGCCGUGGUGGAGACAG | 0.0597
AAGUCCUGUGCUACACAUCGUAUGUACCGAAUCGGUUUGGUUUUUUUGGUUUUUGGAAAGUAUUAUGUUACGCCGUUCGGAUCUGCACUU | -0.713
UGGCCCUGGUGGCAUGCGGGGAGGAAGAGGUGGCCUCAUGGAGCGUGGUGGUCCCGGUGGAAUGUUCAGAGGUGGCCGUGGUGGAGACAG | 0.237
CCUCAAGUCCUGUGCUACACAUCGUAUGUACCGAAUCGGGCGGGCGGCGGGGAAAGUAUUAUGUUACGCCGUUCGGAUCUGCACUUCCAG | 0.985
UGGCCCUGGUGGCAUGCGGGGAGGAAGAGGUGGCCUCAUGGAUCGUGGUGGUCCCGGUGGAAUGUUCAGAGGUGGCCGUGGUGGAGAAAG | 0.243
CAAGUCCUGUGCUACACAUCGUAUGUACCGAAUCGGGUGGGAAAAAAAGGGUGGGAAAGUAUUAUGUUACGCCGUUCGGAUCUGCACUUC | 0.919
GUCCUGUGCUACACAUCGUAUGUACCGAAUCGGGGAAAGGGGUUUUUGGGGUUUGGGGAAAGUAUUAUGUUACGCCGUUCGGAUCUGCAC | 0.587
